Measured values from different studies.
“And” joins repeats or separate records; there may be more than shown.
Target: Glucagon-like peptide 1 receptor (GLP1R, Homo sapiens, UniProt P43220)
Chain of UniProt P43220 (whole entry, looked up): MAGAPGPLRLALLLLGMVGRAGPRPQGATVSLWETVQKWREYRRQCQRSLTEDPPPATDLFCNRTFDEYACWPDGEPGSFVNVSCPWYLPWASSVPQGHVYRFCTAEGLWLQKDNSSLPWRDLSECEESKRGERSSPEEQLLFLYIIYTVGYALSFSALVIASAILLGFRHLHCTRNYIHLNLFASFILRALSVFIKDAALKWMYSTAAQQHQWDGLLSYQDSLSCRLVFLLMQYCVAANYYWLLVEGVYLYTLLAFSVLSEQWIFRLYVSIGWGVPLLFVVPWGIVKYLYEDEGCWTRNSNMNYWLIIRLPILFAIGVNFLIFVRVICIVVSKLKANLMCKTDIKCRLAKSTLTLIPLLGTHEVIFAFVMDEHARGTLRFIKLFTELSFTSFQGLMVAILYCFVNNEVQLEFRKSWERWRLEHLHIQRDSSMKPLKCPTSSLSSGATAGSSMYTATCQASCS
Action: agonist

CC[C@H](C)[C@H](NC(=O)[C@H](Cc1ccccc1)NC(=O)[C@H](CCC(=O)O)NC(=O)[C@H](CCCCN)NC(=O)[C@H](C)NC(=O)[C@H](C)NC(=O)[C@H](CCC(N)=O)NC(=O)CNC(=O)[C@H](CCC(=O)O)NC(=O)[C@H](CC(C)C)NC(=O)[C@H](Cc1ccc(O)cc1)NC(=O)[C@H](CO)NC(=O)[C@H](CO)NC(=O)C(C)(C)NC(=O)[C@H](CC(=O)O)NC(=O)[C@H](CO)NC(=O)[C@@H](NC(=O)[C@H](Cc1ccccc1)NC(=O)[C@@H](NC(=O)CNC(=O)[C@H](CCC(=O)O)NC(=O)[C@H](C)NC(=O)[C@@H](N)Cc1c[nH]cn1)[C@@H](C)O)[C@@H](C)O)C(=O)N[C@@H](C)C(=O)N[C@@H](Cc1c[nH]c2ccccc12)C(=O)N[C@@H](CC(C)C)C(=O)N[C@H](C(=O)N[C@@H](CCCCN)C(=O)NCC(=O)N[C@@H](CCCNC(=N)N)C(N)=O)C(C)C — EC50 (cAMP, luciferase): 0.0316 nM
CCCCCCCCCCCCCCCC(=O)N[C@@H](CCC(=O)NCCCC[C@H](NC(=O)[C@H](CC(=O)O)NC(=O)[C@H](CO)NC(=O)[C@@H](NC(=O)[C@H](Cc1ccccc1)NC(=O)[C@@H](NC(=O)CNC(=O)[C@H](CCC(N)=O)NC(=O)[C@H](C)NC(=O)[C@H](Cc1c[nH]cn1)NCC(F)(F)F)[C@@H](C)O)[C@@H](C)O)C(=O)N[C@@H](CO)C(=O)N[C@@H](CCCCN)C(=O)N[C@@H](Cc1ccc(O)cc1)C(=O)N[C@@H](CC(C)C)C(=O)N[C@@H](CC(=O)O)C(=O)N[C@@H](CCC(=O)O)C(=O)N[C@@H](CCCNC(=N)N)C(=O)N[C@@H](C)C(=O)N[C@@H](C)C(=O)N[C@@H](CCC(N)=O)C(=O)N[C@@H](CC(=O)O)C(=O)N[C@@H](Cc1ccccc1)C(=O)N[C@H](C(=O)N[C@@H](CCC(N)=O)C(=O)N[C@@H](Cc1c[nH]c2ccccc12)C(=O)N[C@@H](CC(C)C)C(=O)N[C@@H](CC(C)C)C(=O)N[C@@H](CC(=O)O)C(=O)NCC(=O)NCC(=O)N1CCC[C@H]1C(=O)N[C@@H](CO)C(=O)N[C@@H](CO)C(=O)NCC(=O)N[C@@H](C)C(=O)N1CCC[C@H]1C(=O)N1CCC[C@H]1C(=O)N1CCC[C@H]1C(=O)N[C@@H](CO)C(N)=O)C(C)C)C(=O)O — EC50 (reporter gene, luciferase): 0.00631 nM
CC[C@H](C)[C@H](NC(=O)[C@H](Cc1ccccc1)NC(=O)[C@H](CCC(=O)O)NC(=O)[C@H](CCCCN)NC(=O)[C@H](C)NC(=O)[C@H](C)NC(=O)[C@H](CCC(N)=O)NC(=O)CNC(=O)[C@H](CCC(=O)O)NC(=O)[C@H](CC(C)C)NC(=O)[C@H](Cc1ccc(O)cc1)NC(=O)C[C@@H](NC(=O)[C@H](CO)NC(=O)C(C)(C)NC(=O)[C@H](CC(=O)O)NC(=O)[C@H](CO)NC(=O)[C@@H](NC(=O)[C@H](Cc1ccccc1)NC(=O)[C@@H](NC(=O)CNC(=O)[C@H](CCC(=O)O)NC(=O)[C@H](C)NC(=O)[C@@H](N)Cc1c[nH]cn1)[C@@H](C)O)[C@@H](C)O)C(C)C)C(=O)N[C@@H](C)C(=O)N[C@@H](Cc1c[nH]c2ccccc12)C(=O)N[C@@H](CC(C)C)C(=O)N[C@H](C(=O)N[C@@H](CCCCN)C(=O)NCC(=O)N[C@@H](CCCNC(=N)N)C(N)=O)C(C)C — EC50 (β-arrestin-1 recruitment, BRET; HEK293FT with GRK5): 6.31 nM
CC(C)C[C@H](NC(=O)[C@H](Cc1ccc(O)cc1)NC(=O)[C@H](CO)NC(=O)[C@H](CO)NC(=O)[C@@H](NC(=O)[C@H](CC(=O)O)NC(=O)[C@H](CO)NC(=O)[C@@H](NC(=O)[C@H](Cc1ccccc1)NC(=O)[C@@H](NC(=O)CNC(=O)[C@H](CCC(=O)O)NC(=O)[C@H](C)NC(=O)[C@@H](N)Cc1c[nH]cn1)[C@@H](C)O)[C@@H](C)O)C(C)C)C(=O)N[C@@H](CCC(=O)O)C(=O)NCCN(CC(=O)N[C@@H](C)C(=O)N[C@@H](C)CN(CC(=O)N[C@@H](CCC(=O)O)C(=O)N[C@@H](Cc1ccccc1)CN(CC(=O)N[C@@H](C)C(=O)N[C@@H](Cc1c[nH]c2ccccc12)CN(CC(=O)N[C@H](C(=O)N[C@@H](CCCCN)CN(CC(=O)N[C@@H](CCCNC(=N)N)C(=O)N[C@@H](CCCCN)CN(CC(N)=O)S(C)(=O)=O)S(C)(=O)=O)C(C)C)S(=O)(=O)CC(C)C)S(=O)(=O)CC(C)C)S(=O)(=O)CCN)S(=O)(=O)CCN — EC50 (reporter gene, luciferase): > 1000 nM
COc1cc(C2C(NC(=O)c3ccc(NC(=O)OC(C)(C)C)cc3)(C(=O)O)C(c3ccc(OC(=O)c4cccs4)c(OC)c3)C2(NC(=O)c2ccc(NC(=O)OC(C)(C)C)cc2)C(=O)O)ccc1OC(=O)c1cccs1 (stereo not shown) — EC50 (cAMP production): 16.6 nM
CC[C@H](C)[C@H](NC(=O)[C@H](Cc1ccccc1)NC(=O)[C@H](CCC(=O)O)NC(=O)[C@H](CCCCN)NC(=O)[C@H](C)NC(=O)[C@H](C)NC(=O)[C@H](CCC(N)=O)NC(=O)CNC(=O)[C@H](CCC(=O)O)NC(=O)[C@H](CC(C)C)NC(=O)[C@H](Cc1ccc(O)cc1)NC(=O)[C@H](CO)NC(=O)[C@H](CO)NC(=O)[C@@H](NC(=O)[C@H](CC(=O)O)NC(=O)[C@H](CO)NC(=O)[C@@H](NC(=O)CN(C[C@@H](NC(=O)CNC(=O)CN(C[C@H](C)NC(=O)[C@H](Cc1c[nH]cn1)NC(C)=O)S(=O)(=O)c1ccc(C(=O)O)cc1)[C@H](C)O)S(=O)(=O)Cc1ccccc1)[C@@H](C)O)C(C)C)C(=O)N[C@@H](C)C(=O)N[C@@H](Cc1c[nH]c2ccccc12)C(=O)N[C@@H](CC(C)C)C(=O)N[C@H](C(=O)N[C@@H](CCCCN)C(=O)NCC(=O)N[C@@H](CCCNC(=N)N)C(=O)NCC(N)=O)C(C)C — EC50 (reporter gene, luciferase): > 1000 nM
CC[C@H](C)[C@H](NC(=O)[C@H](Cc1ccccc1)NC(=O)[C@H](CCC(=O)O)NC(=O)[C@H](CCCCN)NC(=O)[C@H](C)NC(=O)[C@H](C)NC(=O)[C@H](CCC(N)=O)NC(=O)CNC(=O)[C@H](CCC(=O)O)NC(=O)[C@H](CC(C)C)NC(=O)[C@H](Cc1ccc(O)cc1)NC(=O)[C@H](CO)NC(=O)[C@H](CO)NC(=O)[C@@H](NC(=O)[C@H](CC(=O)O)NC(=O)[C@H](CO)NC(=O)[C@@H](NC(=O)[C@H](Cc1ccccc1)NC(=O)[C@@H](NC(=O)CNC(=O)[C@H](CCC(=O)O)NC(=O)[C@H](C)NC(=O)[C@H](Cc1c[nH]cn1)NCc1ccc(-c2ccccc2)cc1)[C@@H](C)O)[C@@H](C)O)C(C)C)C(=O)N[C@@H](C)C(=O)N[C@@H](Cc1c[nH]c2ccccc12)C(=O)N[C@@H](CC(C)C)C(=O)N[C@H](C(=O)N[C@@H](CCCCN)C(=O)NCC(=O)N[C@@H](CCCNC(=N)N)C(N)=O)C(C)C — EC50 (reporter gene, luciferase): 0.0158 nM
CC[C@H](C)[C@H](NC(=O)[C@H](Cc1ccccc1)NC(=O)[C@H](CCC(=O)O)NC(=O)[C@H](CCCCN)NC(=O)[C@H](C)NC(=O)[C@H](C)NC(=O)[C@H](CCC(N)=O)NC(=O)CNC(=O)[C@H](CCC(=O)O)NC(=O)[C@H](CC(C)C)NC(=O)[C@H](Cc1ccc(O)cc1)NC(=O)[C@H]1CCC[C@@H]1NC(=O)[C@H](CO)NC(=O)C(C)(C)NC(=O)[C@H](CC(=O)O)NC(=O)[C@H](CO)NC(=O)[C@@H](NC(=O)[C@H](Cc1ccccc1)NC(=O)[C@@H](NC(=O)CNC(=O)[C@H](CCC(=O)O)NC(=O)C(C)(C)NC(=O)[C@@H](N)Cc1c[nH]cn1)[C@@H](C)O)[C@@H](C)O)C(=O)N[C@@H](C)C(=O)N[C@@H](Cc1c[nH]c2ccccc12)C(=O)N[C@@H](CC(C)C)C(=O)N[C@H](C(=O)N[C@@H](CCCCN)C(=O)NCC(=O)N[C@@H](CCCNC(=N)N)C(N)=O)C(C)C — EC50 (cAMP, luciferase): 0.138 nM
CC[C@H](C)[C@H](NC(=O)[C@H](Cc1ccccc1)NC(=O)[C@H](CCC(=O)O)NC(=O)[C@H](CCCCN)NC(=O)[C@H](C)NC(=O)[C@H](C)NC(=O)[C@H](CCC(N)=O)NC(=O)CNC(=O)[C@H](CCC(=O)O)NC(=O)[C@H](CC(C)C)NC(=O)[C@H](Cc1ccc(O)cc1)NC(=O)[C@H](CO)NC(=O)[C@H](CO)NC(=O)[C@@H](NC(=O)[C@H](CC(=O)O)NC(=O)[C@H](CO)NC(=O)[C@@H](NC(=O)CN(C[C@@H](NC(=O)CNC(=O)CN(C[C@H](C)NC(=O)[C@@H](N)Cc1c[nH]cn1)S(=O)(=O)c1ccc(C(=O)O)cc1)[C@H](C)O)S(=O)(=O)Cc1ccccc1)[C@@H](C)O)C(C)C)C(=O)N[C@@H](C)C(=O)N[C@@H](Cc1c[nH]c2ccccc12)C(=O)N[C@@H](CC(C)C)C(=O)N[C@H](C(=O)N[C@@H](CCCCN)C(=O)NCC(=O)N[C@@H](CCCNC(=N)N)C(=O)NCC(N)=O)C(C)C — EC50 (reporter gene, luciferase): > 1000 nM
CC[C@H](C)[C@H](NC(=O)[C@H](Cc1ccccc1)NC(=O)[C@H](CCC(=O)O)NC(=O)[C@H](CCCCN)NC(=O)[C@H](C)NC(=O)[C@H](C)NC(=O)[C@H](CCC(N)=O)NC(=O)CNC(=O)[C@H](CCC(=O)O)NC(=O)[C@H](CC(C)C)NC(=O)[C@H](Cc1ccc(O)cc1)NC(=O)[C@H](CO)NC(=O)[C@H](CO)NC(=O)[C@@H](NC(=O)[C@H](CC(=O)O)NC(=O)[C@H](CO)NC(=O)[C@@H](NC(=O)[C@H](Cc1ccccc1)NC(=O)[C@@H](NC(=O)CNC(=O)[C@H](CCC(=O)O)NC(=O)[C@H](C)NC(=O)[C@H](Cc1c[nH]cn1)NC[C@@H](N)CO)[C@@H](C)O)[C@@H](C)O)C(C)C)C(=O)N[C@@H](C)C(=O)N[C@@H](Cc1c[nH]c2ccccc12)C(=O)N[C@@H](CC(C)C)C(=O)N[C@H](C(=O)N[C@@H](CCCCN)C(=O)NCC(=O)N[C@@H](CCCNC(=N)N)C(N)=O)C(C)C — EC50 (reporter gene, luciferase): 0.0251 nM and 0.025 nM

Some of these lines once more:
CC[C@H](C)[C@H](NC(=O)[C@H](Cc1ccccc1)NC(=O)[C@H](CCC(=O)O)NC(=O)[C@H](CCCCN)NC(=O)[C@H](C)NC(=O)[C@H](C)NC(=O)[C@H](CCC(N)=O)NC(=O)CNC(=O)[C@H](CCC(=O)O)NC(=O)[C@H](CC(C)C)NC(=O)[C@H](Cc1ccc(O)cc1)NC(=O)[C@H]1CCC[C@@H]1NC(=O)[C@H](CO)NC(=O)C(C)(C)NC(=O)[C@H](CC(=O)O)NC(=O)[C@H](CO)NC(=O)[C@@H](NC(=O)[C@H](Cc1ccccc1)NC(=O)[C@@H](NC(=O)CNC(=O)[C@H](CCC(=O)O)NC(=O)C(C)(C)NC(=O)[C@@H](N)Cc1c[nH]cn1)[C@@H](C)O)[C@@H](C)O)C(=O)N[C@@H](C)C(=O)N[C@@H](Cc1c[nH]c2ccccc12)C(=O)N[C@@H](CC(C)C)C(=O)N[C@H](C(=O)N[C@@H](CCCCN)C(=O)NCC(=O)N[C@@H](CCCNC(=N)N)C(N)=O)C(C)C — EC50 (cAMP, luciferase): 0.138 nM
CC[C@H](C)[C@H](NC(=O)[C@H](Cc1ccccc1)NC(=O)[C@H](CCC(=O)O)NC(=O)[C@H](CCCCN)NC(=O)[C@H](C)NC(=O)[C@H](C)NC(=O)[C@H](CCC(N)=O)NC(=O)CNC(=O)[C@H](CCC(=O)O)NC(=O)[C@H](CC(C)C)NC(=O)[C@H](Cc1ccc(O)cc1)NC(=O)[C@H](CO)NC(=O)[C@H](CO)NC(=O)C(C)(C)NC(=O)[C@H](CC(=O)O)NC(=O)[C@H](CO)NC(=O)[C@@H](NC(=O)[C@H](Cc1ccccc1)NC(=O)[C@@H](NC(=O)CNC(=O)[C@H](CCC(=O)O)NC(=O)[C@H](C)NC(=O)[C@@H](N)Cc1c[nH]cn1)[C@@H](C)O)[C@@H](C)O)C(=O)N[C@@H](C)C(=O)N[C@@H](Cc1c[nH]c2ccccc12)C(=O)N[C@@H](CC(C)C)C(=O)N[C@H](C(=O)N[C@@H](CCCCN)C(=O)NCC(=O)N[C@@H](CCCNC(=N)N)C(N)=O)C(C)C — EC50 (cAMP, luciferase): 0.0316 nM
